Experimental data gathered from unrelated publications.
Each numbered part is a random draw from the data of one study; scales do not carry over between parts. Positions count from the first letter of the parent shown.
Chain of UniProt P51957 (whole entry, looked up): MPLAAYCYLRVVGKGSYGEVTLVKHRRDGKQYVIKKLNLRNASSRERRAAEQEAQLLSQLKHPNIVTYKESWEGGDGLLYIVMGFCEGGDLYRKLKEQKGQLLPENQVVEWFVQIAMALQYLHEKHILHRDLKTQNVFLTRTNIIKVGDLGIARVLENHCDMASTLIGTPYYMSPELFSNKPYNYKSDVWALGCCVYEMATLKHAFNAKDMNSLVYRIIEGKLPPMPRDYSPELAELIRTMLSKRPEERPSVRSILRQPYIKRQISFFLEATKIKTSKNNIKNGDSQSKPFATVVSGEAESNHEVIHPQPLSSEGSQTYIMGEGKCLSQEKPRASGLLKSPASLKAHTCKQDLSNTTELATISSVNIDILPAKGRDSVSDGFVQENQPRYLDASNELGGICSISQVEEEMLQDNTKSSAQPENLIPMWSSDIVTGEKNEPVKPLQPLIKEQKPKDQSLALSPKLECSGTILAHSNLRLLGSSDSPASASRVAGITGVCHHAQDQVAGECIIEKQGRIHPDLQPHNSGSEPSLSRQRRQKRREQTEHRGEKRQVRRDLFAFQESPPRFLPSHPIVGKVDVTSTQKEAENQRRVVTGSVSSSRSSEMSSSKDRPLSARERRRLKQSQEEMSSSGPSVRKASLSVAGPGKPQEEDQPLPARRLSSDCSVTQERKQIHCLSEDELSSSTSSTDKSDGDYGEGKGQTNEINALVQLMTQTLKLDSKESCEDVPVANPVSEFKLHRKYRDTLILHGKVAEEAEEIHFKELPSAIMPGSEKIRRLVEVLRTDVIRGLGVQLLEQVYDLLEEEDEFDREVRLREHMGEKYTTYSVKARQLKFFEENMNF

Set 1 — method: aptamer microarray, sandwich; form: DNA with 2'F-ANA; sample: in vitro; tested at: 200 nM; together with: Cy3 exosite-II aptamer, 400 nM; reading: higher = stronger binding; sequence: GGTTGGTGTGGTTGG
Target: Prothrombin, mature alpha-thrombin (F2, Homo sapiens, UniProt P00734)
Notes: whole 15-mer aptamer, many near background
`2'F-ANA at 4 5 7 10 11 12 13` — result for “mean fluorescence intensity”: 49.1 a.u.
`2'F-ANA at 2 5 9 10 13 14`: “mean fluorescence intensity” 46.6 a.u.
`2'F-ANA at 2 6 7 11 12 14` — result for “mean fluorescence intensity”: 199 a.u.
`2'F-ANA at 2 3 12 13 14 15`: “mean fluorescence intensity” 479 a.u.
`2'F-ANA at 1 4 5 6 11 12` — result for “mean fluorescence intensity”: 81.1 a.u.
`2'F-ANA at 2 7 9 14 15` — result for “mean fluorescence intensity”: 176 a.u.
`2'F-ANA at 4 6 7 11 13` — result for “mean fluorescence intensity”: 187 a.u.
`2'F-ANA at 2 4 5 11 14 15` — result for “mean fluorescence intensity”: 45.2 a.u.

Set 2 — target: CREB3L3, bZIP domain (human); method: DHFR protein complementation; sample: yeast; reference: wild-type JUN-FOS pair; reading: higher = stronger binding
Notes: single substitutions, most at no-binding floor
Starting sequence: JUN, bZIP domain (human); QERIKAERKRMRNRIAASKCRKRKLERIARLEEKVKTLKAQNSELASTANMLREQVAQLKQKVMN; partner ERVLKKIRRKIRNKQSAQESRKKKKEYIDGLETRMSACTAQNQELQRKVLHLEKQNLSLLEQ
`Q41L` has a binding fitness of -1.21 natural log.
`K39I` gave a binding fitness of -1.22 natural log.
`T48C` has a binding fitness of -1.46 natural log.
`V35R` gave a binding fitness of -1.54 natural log.
`E32N` gave a binding fitness of -1.53 natural log.
With `V56F` the binding fitness was -1.54 natural log.
With `L31A` the binding fitness was -1.47 natural log.
With `E54P` the binding fitness was -1.52 natural log.

Set 3 — target: CEP164, C-terminal peptide (human); method: DHFR complementation, deep sequencing; sample: yeast; reference: wild type; reading: higher = weaker binding
Notes: single substitutions, model-inferred values
Starting sequence: PDZK1, PDZ domain 2 (human); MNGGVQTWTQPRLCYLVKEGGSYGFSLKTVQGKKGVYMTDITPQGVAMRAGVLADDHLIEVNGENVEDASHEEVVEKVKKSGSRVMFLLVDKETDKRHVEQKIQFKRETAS; partner HNRVKVYRF
Under “binding free energy change”, `T7I` is recorded as 0.0115 kcal/mol.
Under “binding free energy change”, `D40W` is recorded as 0.756 kcal/mol.
For `L27I`, “binding free energy change” read -0.0835 kcal/mol.
`K33T` — result for “binding free energy change”: 0.0005 kcal/mol.
`R97P`: “binding free energy change” 0.0986 kcal/mol.
For `W8E`, “binding free energy change” read -0.0705 kcal/mol.
`G63Q`: “binding free energy change” 0.189 kcal/mol.
For `V30K`, “binding free energy change” read 0.237 kcal/mol.

Mixed results
For `Cn1cc(/C=C2\C(=O)Nc3ccc(S(N)(=O)=O)cc32)c2ccccc21`, the remaining activity was 81% (Serine/threonine-protein kinase Nek4 (NEK4, Homo sapiens, UniProt P51957); enzyme activity, inhibitor; 0.5 µM; reference: control).

For quick reference, copied from above (set 2):
`E32N` gave a binding fitness of -1.53 natural log.
With `V56F` the binding fitness was -1.54 natural log.
With `L31A` the binding fitness was -1.47 natural log.
With `E54P` the binding fitness was -1.52 natural log.
